# Results of several laboratories.
# Every numbered part comes from another study and shows a few of its results, in no order.

# Study 1
# Target: RING finger protein unkempt homolog, zinc fingers 1-6, SBP tag (UNK, Homo sapiens, UniProt Q9C0B0, residues 30-357)
# UniProt Q9C0B0, sequence (30-357, looked up): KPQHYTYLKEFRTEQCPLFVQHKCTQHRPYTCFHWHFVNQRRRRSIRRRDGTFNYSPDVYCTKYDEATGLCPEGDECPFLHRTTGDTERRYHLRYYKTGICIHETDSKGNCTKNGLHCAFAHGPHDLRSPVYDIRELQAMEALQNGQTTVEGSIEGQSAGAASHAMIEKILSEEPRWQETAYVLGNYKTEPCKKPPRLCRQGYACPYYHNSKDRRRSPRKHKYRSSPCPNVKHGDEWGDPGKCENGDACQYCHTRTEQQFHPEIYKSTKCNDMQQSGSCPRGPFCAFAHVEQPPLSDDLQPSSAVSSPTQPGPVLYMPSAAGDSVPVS
# Technique: RNA Bind-n-Seq
# Form: RNA
# Sample: in vitro
# Tested at: 100 nM
# Setting: RNA with constant flanks, vertebrate orthologous sites, ends assumed
# Relative to: input RNA pool
# Reading: higher = stronger binding
Sequence,bound/input enrichment
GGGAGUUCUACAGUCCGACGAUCCAGCCAACUCACUUAUAGGAAGAGCUGCACACAUUGCUGUUCUGGAUUCAGAGAUAUUUUUGGAAAAAUUCUUUAUGGUUGCUGGCCUUAAAUAUUUUCAGUAAGAGGAGUCAGCAUGAACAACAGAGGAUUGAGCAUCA,0.445 ratio
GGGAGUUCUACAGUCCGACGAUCCUUGAUUCACAUUCCUCUCUGUUUGUGUUUAGAGAAAGAAAGGGGGGAACAAAAGACAUUUUAGCCUUUUUUAAAGUUACUGAUAUAAUUUCUUGUUACUUGGUUGCAUGAAGCUGCCCUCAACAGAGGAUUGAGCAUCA,0.734 ratio
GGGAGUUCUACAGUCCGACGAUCUGUCCUUUCUCACUGUCCCCAGCCGGGGCCGGGGACCGGUGUGUCACUGAGGACCUGCAUUAGAAACAUUUUUUAAAUUGUUGUACAGGAAGAGAUGCGUCUAAAACAGCAUCUCAAAGCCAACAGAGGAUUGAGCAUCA,1.13 ratio
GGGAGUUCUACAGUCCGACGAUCAAAUAUACUUCAUGCCAUGGACUCCGUAUCGCACCGAUACUUUGAUAGAAUAUGCUUCUUUAGAGGACUUCCAAAAUGGACGCCAGCAGACGACGUAUAAACUGCCAAAUAGAGUGGAUGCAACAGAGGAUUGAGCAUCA,0.827 ratio
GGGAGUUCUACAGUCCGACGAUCAGUAUCCCAGUUGUACCGUGUUGGGUUGGCAUUGUACAGAAAUUAACAGCCAUAUUGGUCUAGAAACGUUAAACAUAAUUUUUUCCAUUUGUACAGGGGUAACGCACUGUAUUAAAUAUGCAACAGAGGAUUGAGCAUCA,1.1 ratio
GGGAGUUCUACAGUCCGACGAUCUGCCCCCACCCACUGUGAGAGGGAAUGGGGGAAGCCUGAUGACCCUCAGCUGUUCCAAUCUAGUAUUUUUUUUUUCUUUUUUAAAAUUACUGUAUUUAUUAUGACGACGGUGACUCCCCACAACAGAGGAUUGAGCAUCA,3 ratio
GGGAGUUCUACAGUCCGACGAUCUAUUAGUGUCAUACCAGCAUAUUAACCUCUCGUCUGUGCACAGCUUCAAAUGUUACCGUCUAGUUAGAUUUUUAUUUAAAAUAUGAAAAACUGCUUUUCCCAAGAUGUUUUUUAAAAACACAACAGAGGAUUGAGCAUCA,1.53 ratio
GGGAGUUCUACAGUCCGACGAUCGGAGCUUGUGUUUGGCUGCGCCUGCGUCACAAGCUGCUGCAACCAGAAUAAAGAGUUUCCGAGCCUGCGUCUCGCUUGGGUGCAGGGAGUGGGCUUUGCGCACAGGGCUCGGCGCUGACGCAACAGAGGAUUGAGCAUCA,0.352 ratio
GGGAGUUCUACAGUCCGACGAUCUUACAGUCAUUGAUGGACUCUAUUUUUUUAUUAUUACUUGGACCUUGGUCGUUUUUAUACUAGCAAAAUGUCUUGUUUUAAUUUGUGUUUUUUGGGGGAGGGAGUGAACUUGCUGAUUCUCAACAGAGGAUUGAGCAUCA,2.51 ratio
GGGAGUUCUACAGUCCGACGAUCCCUCAACUUGUGCUAGCUUGAAAUCCUUCAAAGUUGGGGUCAGGCAUUAGUGCUGGGUACUAGAAAAUUUGAUUUCUCUGUUGCCACCAACGAGAGACACAGAUGUUAAAAACAGAAAUACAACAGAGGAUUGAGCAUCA,0.467 ratio
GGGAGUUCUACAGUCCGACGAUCUUAUGUGAUUUUAUUUAUUGAGGAUAGUUGUGUGCUAAGAACUGUGUUAGAUUUAAAAAUUAGAGGAUUAAUUCCUCUUUGUUGUGUUGCUUUCAUUAUUAAAAAUAAAUAGAACUUUGUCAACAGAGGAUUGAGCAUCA,1.35 ratio

# Study 2
# Target: Fragile X messenger ribonucleoprotein 1, C-terminal low-complexity region (Fmr1, Mus musculus, UniProt P35922)
# Technique: RNA Bind-n-Seq
# Form: RNA
# Sample: in vitro
# Tested at: 200 nM
# Setting: whole 134-nt RNA, ends assumed
# Together with: 150 mM LiCl
# Relative to: input library
# Reading: higher = stronger binding
# Library: 7-deaza-guanosine replaces G
Sequence,log2 enrichment
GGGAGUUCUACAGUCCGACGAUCUCAAGUCCUGUGCUACACAUCGUAUGUACCGAAUCGGGUUUGGUUUGGUUUGGGAAAGUAUUAUGUUACGCCGUUCGGAUCUGCACUUCCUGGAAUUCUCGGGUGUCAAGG,-1.7
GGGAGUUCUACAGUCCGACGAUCUGGCCCUGGUGGCAUGCGGGGAGGAAGAGGUGACCUCAUGGAUCGUGGUGGUCCCGGUGGAAUGUUCAGAGGUGGCCGUGGUGGAGACAGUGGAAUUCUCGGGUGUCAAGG,-0.13
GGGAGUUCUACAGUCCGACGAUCUGGCCAAUAGCAUCCUUUUCCAGUCUUCCGGUCUGACAAAUGGAAUAAUAGAAGAAAAGGACAUACAUGAAGAAUUGCCAAAACGGAAAGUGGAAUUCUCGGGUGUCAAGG,-1.79
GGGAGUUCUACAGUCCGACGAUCUCCUGUGCUACACAUCGUAUGUACCGAAUCGGGGUUUGGGGUUUGGGGAAAAAAAGGGGAAAGUAUUAUGUUACGCCGUUCGGAUCUGCAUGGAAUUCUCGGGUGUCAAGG,-1.22
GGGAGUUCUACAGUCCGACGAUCUGGAGGAGCCAUAGAAUAUUAAGGAUGAAUUCAGGAAGGCCUGAGACCAUGGAAAACUUGCCUGCUCUCUACACUAUUUUCCAAGGAGAGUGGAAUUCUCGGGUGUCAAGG,0.182
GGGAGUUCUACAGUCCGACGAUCUGGGAGGUGGAUUUAGUUUAUUUUUUUAGCUCAUUUCCAGGGGUGGGAAUUUUUUUUUAAUAUGUGUCAUGAAUAAAGUUGUUUUUGAAAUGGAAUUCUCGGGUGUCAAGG,-0.341
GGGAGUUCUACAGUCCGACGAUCCCUGUGCUACACAUCGUAUGUACCGAAUCGGAAAAAAGGGGAAAAAAGGGGAAAAAAGGGAAAGUAUUAUGUUACGCCGUUCGGAUCUGCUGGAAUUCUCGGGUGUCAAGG,-0.216
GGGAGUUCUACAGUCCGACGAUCUCCUGUGCUACACAUCGUAUGUACCGAAUCGGCCCCCCGGGGCCCCCCGGGCCCCCCGGGAAAGUAUUAUGUUACGCCGUUCGGAUCUGCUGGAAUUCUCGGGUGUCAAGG,-3.34

# Study 3
# Target: Interferon regulatory factor 3, full length, phosphomimetic (IRF3, Homo sapiens, UniProt Q14653, residues 1-427, S386D/S396D/S398D/S402D/T404D/S405D)
# UniProt Q14653, sequence (whole entry, unmodified, looked up): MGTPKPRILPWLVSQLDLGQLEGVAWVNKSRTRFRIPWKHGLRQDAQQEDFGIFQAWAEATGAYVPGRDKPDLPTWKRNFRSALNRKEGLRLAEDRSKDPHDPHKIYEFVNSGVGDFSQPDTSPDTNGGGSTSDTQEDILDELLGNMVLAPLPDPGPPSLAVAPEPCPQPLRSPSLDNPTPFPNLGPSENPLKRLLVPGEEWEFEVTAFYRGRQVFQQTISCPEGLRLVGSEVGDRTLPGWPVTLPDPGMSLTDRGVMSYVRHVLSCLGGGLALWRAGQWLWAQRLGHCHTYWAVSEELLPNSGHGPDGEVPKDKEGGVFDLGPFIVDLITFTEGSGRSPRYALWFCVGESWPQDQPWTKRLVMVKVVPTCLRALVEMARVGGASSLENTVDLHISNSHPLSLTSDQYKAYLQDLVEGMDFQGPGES
# Technique: protein-binding microarray
# Form: double-stranded DNA, one strand shown
# Sample: in vitro
# Tested at: 2540 nM top
# Setting: 60-bp whole probe
# Together with: salmon DNA 0.4 mg/ml
# Relative to: random background probes
# Reading: higher = stronger binding
# Shared flanks, not repeated: GCCTAGCAC … GTCTTGATTCGCTTGACGCTGCTG
Sequence,fitted relative affinity [z-score]
TTAGGTTTCGGACTGGGTGAGTGCTAG,4.42
TTAAGTATCGACTTTCGGTTAGTGCTA,2.31
GTTTTTTTCTATATGCAATGGTGCTAG,2.14
AGGACCATCCCTTATAAATAGGTGCTA,0.301
GAGGGTTTCCTTTTCCTGACGTGCTAG,9.85
TCCTCTTTCACTGCTCCATACGTGCTA,2.02
GACGGTCTCATACTGCTGACGTGCTAG,0.606
TCAACACTAATTTTCAAACTGTGCTAG,0.368
TTAGGACTGGGGGCTGGGTTAGTGCTA,-0.557
GACGGTATCCTCCTGCTGACGTGCTAG,1.76
TAAGGACTGGGGTTTCGGTTAGTGCTA,2.65
GCCGGTTCCGGTTTCGGGACGTGCTAG,6.35
GACGGACTGCTTTTCCAGACGTGCTAG,0.114
TCATTTTTTTTTTACTTACTGTGCTAG,1.44
TTTTTTTTTGGAATGTCTTCGTGCTAG,1.07
GCCGGTCTCCTTCTCCTGACGTGCTAG,4.84
TTCGGTATCCTTATCCTTTAGTGCTAG,5.84
TTAGGTCTGGACTATCGGTTAGTGCTA,-0.408
GACGGACTGGGGTATCGGGTCGTGCTA,-0.246
CTAGGTTTCCTTATCCTTTAGTGCTAG,8.04
GACGTACTGCTACTGCTGACGTGCTAG,-0.401
GTCGGACTGCTTCTCCTGACGTGCTAG,0.308

# Study 4
# Target: RNA binding protein fox-1 homolog 2, RRM domain, GST-SBP tag (RBFOX2, Homo sapiens, UniProt O43251-10, residues 100-194)
# Technique: RNA Bind-n-Seq
# Form: RNA
# Sample: in vitro
# Tested at: 365 nM
# Setting: natural RNA segment, single round, ends assumed
# Relative to: no-protein control
# Reading: higher = stronger binding
# Target sequence (chain): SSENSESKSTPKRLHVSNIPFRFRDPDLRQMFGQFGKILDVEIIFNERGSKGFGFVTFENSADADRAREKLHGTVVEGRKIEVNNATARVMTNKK
Sequence,RBNS enrichment (R)
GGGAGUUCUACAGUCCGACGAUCGCCUUACUGUAAGUGCAAUAGUUGACUUUUAACCAACCACCACCACCACCAAAACCAGUUUAUGCAGUUGGACUCCAAGCUGUAACUUCCUAGAGUUGCACCCUAGCAACUGGAAUUCUCGGGUGCCAA,0.356
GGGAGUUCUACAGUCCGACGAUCAGUCUUUGAAAUAUGGAAAAUCAGCAGUCUAAAGUUUGUUUUAAAUUCUAAAUUUAAAAAAUCUUCAAAUCUGAAUAUACCGCAAAUGUCAUGAGAAGUUUGAUUCAGUAUGGAAUUCUCGGGUGCCAA,0.426
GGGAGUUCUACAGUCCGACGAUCGACCCUCUGGGAGGAAGCUGCCACACACAAGGACUCUGGAAGUAUCCAGAUGUGAGCCCAGCCAGGGUCCUAUGGUUCCAAAUCUGAAGAAAAGGUUUUUCACACACUCCUGGAAUUCUCGGGUGCCAA,0.407
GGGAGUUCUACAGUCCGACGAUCAGCCCAACACCACCUUCCUCCUGGCUUCCAGGGGGCAGCCCAGUGGAAUGGAAAGAAUGUGGGAUUUGGAGUCAGACAAGCCUGAGUCCAGUUCCCCGUUUAGAACUCAUUGGAAUUCUCGGGUGCCAA,0.192
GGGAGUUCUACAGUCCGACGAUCACAUAUAUAAUAUACCCUUACAUUAUGUAUGAGGGAUUUUUUUAAAUUAUAUUGAAAUGCUGCCCUAGAAGUACAAUAGGAAGGCUAAAUAAUAAUAACCUGUUUUCUGGUGGAAUUCUCGGGUGCCAA,0.522
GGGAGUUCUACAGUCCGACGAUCGGAGGUUCUACUGUCUUGUCGUCCACUCUUGUCCCUCCCUUCUGUUAUCAAAGUUAAAGCGCCUCUUCACUCAAAAGGGCUUCAAAAUGUAAAUGGCUCUAGAGUUAGAGUGGAAUUCUCGGGUGCCAA,0.445
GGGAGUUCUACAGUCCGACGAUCAGAUCCUGCUGUCUGGAUCAGUGUUCUGGCUGGAGGUGCUGGAUUCUCUGAUUUUGCCUCCUCACUCUGUGUCUGGCUUUGCUCCUGGGUCUUGGCCCUGGGCCAUAUGAUGGAAUUCUCGGGUGCCAA,0.556
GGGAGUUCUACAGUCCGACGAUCCUCUGCACCAACAGUUUAUGGCUGAGAUGUUUUGUAAUUUCAUGAUGUUUGUAAUUUUCAUGAAAAUGUGUGAUUUUCGUUUGUGAUAUGAAAGAUCAUUAAUCAAAGAAUGGAAUUCUCGGGUGCCAA,0.737
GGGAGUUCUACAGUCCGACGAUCGACCAUUAUAAGAAAAGAUAUAUGGAGUUGUAUCUUACUGGAAUUAAUAAACACUGCUUGACCACCGUGUUCUGUUUCAAUUUGUAACAGCUGUCCUAAUUUAAACUCACUGGAAUUCUCGGGUGCCAA,0.733

# Excerpt of the above (study 3):
Sequence,fitted relative affinity [z-score]
GACGGACTGGGGTATCGGGTCGTGCTA,-0.246
TTAGGACTGGGGGCTGGGTTAGTGCTA,-0.557
TTAGGTCTGGACTATCGGTTAGTGCTA,-0.408
TTTTTTTTTGGAATGTCTTCGTGCTAG,1.07
GACGGTATCCTCCTGCTGACGTGCTAG,1.76
GTCGGACTGCTTCTCCTGACGTGCTAG,0.308
AGGACCATCCCTTATAAATAGGTGCTA,0.301
GCCGGTTCCGGTTTCGGGACGTGCTAG,6.35
